Experimental data of several laboratories.
Numbered parts are unrelated; each lists some results of a single study. Changes are numbered by the printed parent chain.

Set 1
Target: CCNE1, cyclin fold, Cln2 fusion (human)
Technique: yeast growth competition, sequencing
Matrix: yeast
Setting: strong parent motif
Baseline: not given
Direction: higher = stronger binding
Starting sequence: viral docking peptide; KGVKRKLFAEDSS
`R5Y`: “normalised enrichment score” -0.128.
`R5S` — result for “normalised enrichment score”: 0.134.
For `K6Q`, “normalised enrichment score” read 7.64.
Under “normalised enrichment score”, `R5E` is recorded as 0.226.

Set 2
Target: UBE2D3 UBC core domain (UniProt P61077)
Technique: yeast two-hybrid
Matrix: yeast
Setting: mostly zero background
Baseline: not given
Direction: higher = stronger interaction
B1: PHF7 RING domain (UniProt Q9BWX1); chain IQHGHVGEESCILCCEDLSQQSVENIQSPCCSQAIYHRKCIQKYAHTSAKHFFKCPQCNNRKEFPQEML
B2: UBE4A RING domain (UniProt Q14139); chain LQQQEEETYADACDEFLDPIMSTLMCDPVVLPSSRVTVDRSTIARHLLSDQTDPFNRSPLTMDQIRPNTELKEKIQRWLAERKQQKEQLE
B3: RNF149 RING domain (UniProt Q8NC42); chain EKGIDVDAENCAVCIENFKVKDIIRILPCKHIFHRICIDPWLLDHRTCPMCKLDVIKALGYW
B4: RNF112 RING domain (UniProt Q9ULX5); chain QPMAPRELPTCSICLERLRDPISLDCGHDFCIRCFSTHRLPGCEPPCCPECRKICKQKRGLR
B5: RNF43 RING domain (UniProt Q68DV7); chain SGSSCSSAPVCAICLEEFSEGQELRVISCLHEFHRNCVDPWLHQHRTCPLCMFNITEGDSFS
B6: ANKIB1 RING domain (UniProt Q9P2G1); chain LSPGDLDTSLCDICMCSISVFEDPVDMPCGHDFCRGCWESFLNLKIQEGEAHNIFCPAYDCFQLVPVDIIE
B7: RFPL2 RING domain (UniProt O75678); chain MAALFQEASSCPVCSDYLEKPMSLECGCAVCLKCINSLQKEPHGEDLLCCCSSMVSRKNKIRR
B8: RNF32 RING domain (UniProt Q9H0A6); chain SLLQGDSVQPCPICKEEFELRPQVLLSCSHVFHKACLQAFEKFTNKKTCPLCRKNQYQTRVIH
Construct (chain): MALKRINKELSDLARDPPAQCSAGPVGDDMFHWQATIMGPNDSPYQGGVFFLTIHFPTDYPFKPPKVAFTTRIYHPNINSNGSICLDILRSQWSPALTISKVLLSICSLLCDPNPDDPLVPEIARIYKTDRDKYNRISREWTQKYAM
Under “lacZ reporter activity”, `LKQVSIRENCCSLCCDEVADTQLKPCGHSDLCMDCALQLETCPLCRKEIVSRIRQI (RSPRY1 RING domain (UniProt Q96DX4))` is recorded as 0.
For `B1 (PHF7 RING domain)`, “lacZ reporter activity” read 0.
`B2 (UBE4A RING domain)`: “lacZ reporter activity” 2320.
`SYEDKSNDFVCPICFDMIEEAYMTKCGHSFCYKCIHQSLEDNNRCPKCNYVVDNIDHLY (COP1 RING domain (UniProt Q8NHY2))`: “lacZ reporter activity” 0.
Under “lacZ reporter activity”, `B3 (RNF149 RING domain)` is recorded as 0.
`B4 (RNF112 RING domain)` — result for “lacZ reporter activity”: 0.
`KRQCSDVDDICSICQAEFQKPILLICQHIFCEECMTLWFNREKTCPLCRTVISDHINKW (RNFT1 RING domain (UniProt Q5M7Z0))`: “lacZ reporter activity” 0.
Under “lacZ reporter activity”, `ISNDSETLEECMVCSDMKRDTLFGPCGHIATCSLCSPRVKKCLICKEQVQSRTKIE (MIB1 RING domain (UniProt Q86YT6))` is recorded as 0.
`B5 (RNF43 RING domain)`: “lacZ reporter activity” 7640.
Under “lacZ reporter activity”, `B6 (ANKIB1 RING domain)` is recorded as 0.
For `B7 (RFPL2 RING domain)`, “lacZ reporter activity” read 0.
For `B8 (RNF32 RING domain)`, “lacZ reporter activity” read 0.

Set 3
Target: Hepatocyte nuclear factor 3-alpha (Foxa1, Mus musculus, UniProt P35582, residues 1-468, full length assumed)
Technique: EMSA with sequencing
Form: double-stranded DNA, one strand shown
Matrix: in vitro
Concentration: 10 and 20 nM
Setting: whole designed probe, mean of two concentrations, ends assumed
Baseline: negative control set to 0
Direction: higher = stronger binding
Construct (chain): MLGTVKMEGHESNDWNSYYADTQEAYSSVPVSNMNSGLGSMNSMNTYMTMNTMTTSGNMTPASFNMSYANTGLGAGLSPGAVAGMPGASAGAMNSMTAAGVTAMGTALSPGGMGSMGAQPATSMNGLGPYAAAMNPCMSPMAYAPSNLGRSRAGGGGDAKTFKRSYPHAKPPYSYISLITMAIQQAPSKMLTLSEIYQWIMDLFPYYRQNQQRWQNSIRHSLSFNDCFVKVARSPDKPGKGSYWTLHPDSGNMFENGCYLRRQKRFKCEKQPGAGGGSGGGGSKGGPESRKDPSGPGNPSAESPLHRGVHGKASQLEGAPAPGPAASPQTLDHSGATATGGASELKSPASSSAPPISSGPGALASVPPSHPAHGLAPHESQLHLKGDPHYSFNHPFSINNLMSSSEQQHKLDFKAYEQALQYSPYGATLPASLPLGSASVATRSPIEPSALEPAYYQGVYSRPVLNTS
For `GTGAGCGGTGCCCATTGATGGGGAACTTTGCAGAGCTTTTCCAGTGAGAGTATCCTAGATACTTGGGGTCATGGCATTACCTTTACATTAGGGCGACAGCAGCTGCAATCTAAACAAAGTAATCTAGTCTGCTAGTGCTTGCCTCTTAAACTAGCCAGGTAGTAGGGTATTTGAGAGTTTAGATAGCCATGCATGTTATATAGGCAGGAAGCAGACAAATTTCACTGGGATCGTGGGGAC`, “normalised bound fraction” read 0.097 ratio.
`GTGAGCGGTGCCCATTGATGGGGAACTAAGCTTACACTACACCATGCTAGGGAAGAGAATAGGTCATTTCCAGGTGTCTCTGTATGGAAAAGAGAATGTTTTCCTTTCCAGTAGCTTAAGTAAACATCAAGTTTCATTGGCTCTGTTAGGGCTATTTTCATTTATTTCTGAACAAATGATCAGGATACACTAACTGTAGAGCCAATCACATTGTAACTATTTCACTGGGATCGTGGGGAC`: “normalised bound fraction” 0.424 ratio.
`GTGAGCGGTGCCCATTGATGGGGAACATCTTCCCCCTCTTCCTTGCCCCACCAGCTCACCTTCCCGGGTTATTTGCAGATAGGAAAATAAATAAAGCCGGCATTCGTTAACCCTCTTCTGGCGCAAACTGCTGTTTGCTCTGGTCCTTTGGCGACGCCAGGCTCCGGGAGGATGAATCATGAGCAAAGCACCGTGTCAGGGCCATGATCCGGGGTGGCCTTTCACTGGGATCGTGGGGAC` — result for “normalised bound fraction”: 0.393 ratio.
`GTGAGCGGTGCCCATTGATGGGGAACATATGACAAAAGGCATGCATGTGACTTTATTTTTTCAATGGCTACTTTTCTTCTTAAATCAGGCTCCCTGATTTTAACTAAAAAATAAATAAGTAATCTAGAAAACACTGGGTTACTCTCAAAGAGATCACATTTTTAAAAACTCAAATGATTTCCTACAGGCAGTCTGTTTTGCAGTGTATTTTTTTTTCTTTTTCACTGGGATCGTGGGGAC`: “normalised bound fraction” 0.0782 ratio.
`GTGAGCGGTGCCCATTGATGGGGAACTAATTGACAATAGTAGATGAGTTAGCCAGGAGACTAAATACAGGTGAAAGGATGACAGCGCTAGATCTTGACACAAATTACCTTAATGGCTGTGCAATTTGTAAGCTGGATACGATTTTTTGAAAACAAACCAAGCTAAACAATCCATTGAAGTGCTCTCTTCCATCTATACCCAGAAACAGCAATTTAGCTTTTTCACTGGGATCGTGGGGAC`: “normalised bound fraction” -0.000542 ratio.
`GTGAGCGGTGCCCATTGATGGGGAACCTCATTCCTTGCTTCCGCCAATAATCTGACTAGTAAAGAAGTCACTGCATGCCACAAAGAGTGACTCAGGACTTCCTCAACAAGGAAGTTATTTATTTACTTATTTAATATATGAGTGTCACAGATGCAAATTCCATCTTGAGAATACCAACTCCTGATGCCAACTGATTGTCAGTCATGGCTACAACAGGAGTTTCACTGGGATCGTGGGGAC` — result for “normalised bound fraction”: 0.463 ratio.
For `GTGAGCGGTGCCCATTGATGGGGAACAATGTGTGTACTTACTAGACTACAGTATAGTGTAAATATAACTTAAGTATGTACTGGAAAACCAAAACATTCATGCGACTTGTTTTATTGCAGTATTTACTTTATTAGGTGATCTGGAACAGAACCCACAGTATCTTCAAGGTATGTGTATACTTCTCTAAATCAAATTTAATCTGATCCAAGCCTTCATCTCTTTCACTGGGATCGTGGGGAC`, “normalised bound fraction” read 0.452 ratio.
`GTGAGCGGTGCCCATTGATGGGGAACATCCACGAACCTGGCCCTGTCTGGTAACCACAGTGAACCATCGCAAGATACAGCACTATGTGCCCATAATGACTCACGTTGGGCTGGAAATGTGTCAACACTGGCACATCCTCAGGGACACGGAAGTGTACTTGTTTTTGGAGAGGGACTAGACCTTCATCCTTGAGGTGAAGAAGATTTTCTCTCCAGGGTGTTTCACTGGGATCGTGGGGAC` — result for “normalised bound fraction”: 0.0339 ratio.

Set 4
Target: Sal-like protein 4, full length isoform A (SALL4, Homo sapiens, UniProt Q9UJQ4, residues 1-1053)
Chain of UniProt Q9UJQ4 (whole entry, looked up): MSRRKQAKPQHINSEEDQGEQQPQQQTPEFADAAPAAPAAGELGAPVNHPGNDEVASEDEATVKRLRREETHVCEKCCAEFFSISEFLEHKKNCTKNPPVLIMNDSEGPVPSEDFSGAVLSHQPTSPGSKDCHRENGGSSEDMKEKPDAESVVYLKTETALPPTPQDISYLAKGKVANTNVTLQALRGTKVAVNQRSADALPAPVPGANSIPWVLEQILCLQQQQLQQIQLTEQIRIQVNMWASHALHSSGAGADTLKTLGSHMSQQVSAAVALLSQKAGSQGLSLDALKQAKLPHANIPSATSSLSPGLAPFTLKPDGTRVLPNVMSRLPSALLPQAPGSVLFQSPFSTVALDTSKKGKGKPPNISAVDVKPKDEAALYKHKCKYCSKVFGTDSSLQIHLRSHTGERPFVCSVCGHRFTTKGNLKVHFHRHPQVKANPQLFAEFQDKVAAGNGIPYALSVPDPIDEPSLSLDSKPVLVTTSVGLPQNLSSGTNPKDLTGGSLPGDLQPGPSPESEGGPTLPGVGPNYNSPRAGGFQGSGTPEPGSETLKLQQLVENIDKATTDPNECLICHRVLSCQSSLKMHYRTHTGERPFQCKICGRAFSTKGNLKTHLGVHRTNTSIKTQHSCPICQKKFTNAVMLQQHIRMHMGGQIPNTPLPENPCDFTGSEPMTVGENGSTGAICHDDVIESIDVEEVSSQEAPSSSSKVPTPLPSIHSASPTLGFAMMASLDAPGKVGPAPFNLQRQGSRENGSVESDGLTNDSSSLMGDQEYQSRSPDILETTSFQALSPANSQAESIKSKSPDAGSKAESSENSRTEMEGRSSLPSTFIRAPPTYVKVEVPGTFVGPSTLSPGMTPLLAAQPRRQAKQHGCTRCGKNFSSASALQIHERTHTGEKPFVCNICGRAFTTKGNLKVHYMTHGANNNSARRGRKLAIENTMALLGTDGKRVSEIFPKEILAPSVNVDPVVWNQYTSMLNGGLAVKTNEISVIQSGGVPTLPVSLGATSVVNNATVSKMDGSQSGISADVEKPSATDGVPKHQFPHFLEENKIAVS
Technique: universal PBM
Form: double-stranded DNA, one strand shown
Matrix: in vitro
Concentration: 600 nM
Setting: 8-mer, flanks averaged, mean of replicates
Direction: higher = stronger binding
The E-score of `CGTGCATC` is reported as -0.214.
For `ACCGCCAA`, the E-score was -0.114.
`ATAATCTC` gave an E-score of 0.289.
For `ACGCTCTC`, the E-score was -0.204.
`GCAGATAC` gave an E-score of 0.0106.
`AATGCTCA` gave an E-score of 0.125.
`AGTTCAGG` gave an E-score of -0.178.
`ATGATGCA` gave an E-score of 0.194.

A few entries again (set 2):
Under “lacZ reporter activity”, `ISNDSETLEECMVCSDMKRDTLFGPCGHIATCSLCSPRVKKCLICKEQVQSRTKIE (MIB1 RING domain (UniProt Q86YT6))` is recorded as 0.
`B5 (RNF43 RING domain)`: “lacZ reporter activity” 7640.
